Assay results gathered from unrelated publications.
Lines come from different studies, so protocols differ. ± gives the spread as reported.

CC(C)[C@@H](CS(=O)(=O)C(C)C)N1C(=O)[C@@](C)(CC(=O)O)C[C@H](c2cccc(Cl)c2)[C@H]1c1ccc(Cl)cc1 — median concentration (MALDI-MSI; B6.129S7-Rag1tm1Mom/J orthotopic PDX mice, normal brain; 25 mg/kg two doses, 2 h after second dose): 450 nmol/L
Cc1ncnc2c1ccn2[C@@H]1C[C@H](Oc2cc(C(F)F)c(F)c3c2CNCC3)[C@@H](O)[C@H]1O — Dyspnea incidence (patients; dose not given, any grade; relative to: patients): 8%
O=C(Nc1ccccc1)C1CCN(C(=O)Oc2cccnc2)CC1 — adverse event Pruritus (healthy women; oral, 20 mg, 7 days): 7.1%
COc1cc2c(Oc3ccc4[nH]c(C)cc4c3F)ccnc2cc1OCC1(N)CC1 — grade 3 hand-foot syndrome (paediatric recurrent refractory sarcoma; 12 mg): 0%
CCN1CCN(Cc2ccc(Nc3ncc(F)c(-c4cc(F)c5nc6n(c5c4)[C@H](C)CCC6)n3)nc2)CC1 — QT prolongation incidence (patients with advanced solid tumours; dose not given, phase Ia monotherapy): 12.5%
C[C@]1(CO)Cc2ncn(-c3ccc(C#N)c(Cl)c3)c2C(=O)O1 — tmax (human, plasma; 80 mg, first dose fasted): 1.5 h
COc1ccc2nc3cc(Cl)ccc3c(Nc3cc(CN4CCCC4)c(O)c(CN4CCCC4)c3)c2n1 — blood pH (mouse, blood; intraperitoneal, 14 mg/kg): 7.54
CN1CC[C@@H](c2c(O)cc(O)c3c(=O)cc(-c4ccc(C(F)(F)F)cc4Cl)oc23)[C@@H]1CO — patients with adverse event (measured: Epistaxis; relapsed B-cell malignancies; oral, 200 mg, grade 3-4, intermittent dosing): 0%
CCc1ccc(CC/C=C/c2ccc3c(c2)C(=O)CC3)cc1 — platelet distribution width (Sprague-Dawley rat, female, blood; oral, 120 mg/kg/day, 14 days): 49.4%
CO[C@H]1C[C@@H]2CC[C@@H](C)[C@@](O)(O2)C(=O)C(=O)N2CCCC[C@H]2C(=O)O[C@H]([C@H](C)C[C@@H]2CC[C@@H](OC(=O)NCCOCCOCCOCCOCCOCCOCCOCCOCCC(=O)N3CCc4cc(Cn5nc(-c6ccc7oc(N)nc7c6)c6c(N)ncnc65)ccc4C3)[C@H](OC)C2)C[C@@H](O)[C@H](C)/C=C(\C)[C@@H](O)[C@@H](OC)C(=O)[C@H](C)C[C@H](C)/C=C/C=C/C=C/1C — incidence of Vomiting TEAE (patients with advanced solid tumours; intravenous, dose not given, any grade): 33.3%
COc1ccc(C[C@@H]2NC(=O)[C@@H](CC(C)C)NC(=O)[C@H](CCSC)NC(=O)[C@H](CC(C)C)NC(=O)[C@@H](CC(C)C)NC(=O)[C@H]3CCCN3C2=O)cc1 — Papp (LC/MS; horizontal lipid bilayer; 10 µM, 1 h, room temperature, 1% DMSO in PBS): 40 ± 20 ×10⁻⁶ cm/s
COC[C@@H](CC(C)C)NC(=O)c1ccc(C)c(C)c1 — PCE to total erythrocyte ratio (Hsd:ICR (CD-1) mouse, male, bone marrow; oral, 1352 mg/kg, 24 h): 0.51
N#Cc1cc(NC(=O)[C@H]2c3ccccc3C(=O)N(CC(F)(F)F)[C@@H]2c2cccnc2)ccc1F — well tolerated dose (Beagle dog, both sexes; oral, 3 days): ≤ 1000 mg/kg
C[C@]1(O)C[C@@](N)(c2ccc(-c3nc4n(c3-c3ccccc3)COc3ccncc3-4)cc2)C1 — patients with grade ≥3 Dyspnea TEAE (human, advanced or metastatic solid tumours; intermittent, dose escalation total): 14.3%
CCCCCCCCCCCCCCCC(=O)N[C@@H](CCC(=O)NCCCC[C@H](NC(=O)[C@H](CC(=O)O)NC(=O)[C@H](CO)NC(=O)[C@@H](NC(=O)[C@H](Cc1ccccc1)NC(=O)[C@@H](NC(=O)CNC(=O)[C@H](CCC(N)=O)NC(=O)[C@H](CO)NC(=O)[C@@H](N)Cc1c[nH]cn1)[C@@H](C)O)[C@@H](C)O)C(=O)N[C@@H](CO)C(=O)N[C@@H](CCC(=O)O)C(=O)N[C@@H](Cc1ccc(O)cc1)C(=O)N[C@@H](CC(C)C)C(=O)N[C@@H](CC(=O)O)C(=O)N[C@@H](CO)C(=O)N[C@@H](CCC(=O)O)C(=O)N[C@@H](CCCNC(=N)N)C(=O)N[C@@H](C)C(=O)N[C@@H](CCCNC(=N)N)C(=O)N[C@@H](CC(=O)O)C(=O)N[C@@H](Cc1ccccc1)C(=O)N[C@H](C(=O)N[C@@H](C)C(=O)N[C@@H](Cc1c[nH]c2ccccc12)C(=O)N[C@@H](CC(C)C)C(=O)N[C@@H](CCC(=O)O)C(=O)N[C@@H](C)C(=O)NCC(=O)NCC(=O)O)C(C)C)C(=O)O — treatment-related adverse events (measured: Tachycardia; humans CrCl at least 90 mL/min; subcutaneous, 100 µg single dose): 0%
C[C@H]1CN(C(=O)CC#N)[C@]12CCN(c1ncnc3[nH]ccc13)C2 — NOAEL (rat, male; oral, 6 months, repeated dosing): 3 mg/kg
Cc1cccc(Cn2nc(C3CC3)c3c(NC(=O)c4cnc5cc(OCCN6CCN(C)CC6)ccn45)cccc32)n1 — all-cause adverse events (CTCAE v4.03, measured: blood alkaline phosphatase increased; patients with advanced solid tumours; oral, all dose levels, together with: pembrolizumab 2 mg/kg IV every 3 weeks): 31.6%
COc1ncccc1-c1cnn2ccc(N3CCN(C(=O)OC(C)C)CC3)nc12 — drug concentration (mouse nerve ligation model, plasma; oral, 3 mg/kg, 180 min after last dose, repeat dosing day 1): 520 nM
CC(C)C[C@H](NC(=O)[C@H](CCC(N)=O)NC(=O)[C@H](CO)NC(=O)[C@H](CO)NC(=O)[C@H](CCCNC(=N)N)NC(=O)[C@H](CCCNC(=N)N)NC(=O)[C@H](CCCNC(=N)N)NC(=O)[C@H](CC(C)C)NC(=O)[C@H](Cc1c[nH]cn1)NC(=O)[C@@H](NC(=O)[C@H](CCCCN)NC(=O)[C@H](CCCNC(=N)N)NC(=O)[C@H](CCCNC(=N)N)NC(=O)[C@H](CCCNC(=N)N)NC(=O)[C@H](CCC(N)=O)NC(=O)[C@H](CCCNC(=N)N)NC(=O)[C@H](CCCNC(=N)N)NC(=O)[C@H](CCCCN)NC(=O)[C@H](CCCCN)NC(=O)[C@H](CCCNC(=N)N)NC(=O)CNC(=O)[C@@H](N)Cc1ccc(O)cc1)[C@@H](C)O)C(=O)N[C@@H](CCCCN)C(N)=O — latency to fall (hanging wire test; rat; intra-CA1 bilateral, dose not given; relative to: saline): no effect
CC(C)C[C@H](NC(=O)[C@H](CCCCN)NC(=O)OCC1c2ccccc2-c2ccccc21)C(=O)N[C@H](C(=O)N[C@@H](Cc1ccccc1)C(=O)N[C@@H](Cc1ccccc1)C(=O)N[C@@H](CCCCN)C(=O)NCC(=O)N[C@@H](Cc1ccccc1)C(=O)N[C@@H](C)C(=O)N[C@@H](Cc1c[nH]c2ccccc12)C(=O)N[C@@H](CC(N)=O)C(=O)N[C@H](C(=O)N[C@H]1CSSC[C@@H](C(=O)N[C@@H](Cc2c[nH]cn2)C(=O)N[C@@H](CCCNC(=N)N)C(=O)N[C@@H](CCCNC(=N)N)C(=O)N[C@@H](C)C(=O)N[C@@H](CC(N)=O)C(N)=O)NC(=O)[C@H](C(C)C)NC(=O)[C@H](CCCNC(=N)N)NC(=O)[C@H](C(C)C)NC(=O)CNC(=O)[C@H](CC(N)=O)NC(=O)[C@H](CCCNC(=N)N)NC(=O)[C@H](Cc2ccc(O)cc2)NC(=O)[C@H](C(C)C)NC1=O)C(C)C)C(C)C — spasm score (ICR mouse; ip, 10 mg/kg; direction not given): 0
Cn1c(-c2ccc(C(N)=O)cc2F)nnc1C(C)(C)Oc1c(F)cc(Cl)cc1F — medical device site reaction TEAE (human; oral, 6 mg, single ascending dose): 33.3%
O[C@H]1CCCN[C@@H]1CCCn1cnc2c(Cl)c(Cl)ccc21 — AUCtau (healthy CYP2D6 intermediate metabolizers, plasma; oral, 150 mg multiple doses): 1690 ng·h/mL
CCN1[C@@H](C(=O)NC23CCC(C(=O)O)(CC2)CC3)[C@H](c2cccc(Cl)c2F)[C@]2(C(=O)Nc3cc(Cl)ccc32)C12CCCCC2 — grade ≥3 vomiting incidence (patients with advanced solid tumours; oral, 200 mg): 0%
O=C1Nc2cc3[nH]nc(-c4ccncc4)c3cc2CN1Cc1ccccc1 — patients with TEAE (measured: macular edema; patients with advanced solid tumours; intravenous, dose not given): 15%

A few entries again:
CCN1CCN(Cc2ccc(Nc3ncc(F)c(-c4cc(F)c5nc6n(c5c4)[C@H](C)CCC6)n3)nc2)CC1 — QT prolongation incidence (patients with advanced solid tumours; dose not given, phase Ia monotherapy): 12.5%
O[C@H]1CCCN[C@@H]1CCCn1cnc2c(Cl)c(Cl)ccc21 — AUCtau (healthy CYP2D6 intermediate metabolizers, plasma; oral, 150 mg multiple doses): 1690 ng·h/mL
